Assay results from different studies.
Lines come from different studies, so protocols differ. ± gives the spread as reported.
CNR2: Cannabinoid receptor 2 (CNR2, Homo sapiens, UniProt P34972)
Sequence of UniProt P34972 (whole entry, unmodified, looked up): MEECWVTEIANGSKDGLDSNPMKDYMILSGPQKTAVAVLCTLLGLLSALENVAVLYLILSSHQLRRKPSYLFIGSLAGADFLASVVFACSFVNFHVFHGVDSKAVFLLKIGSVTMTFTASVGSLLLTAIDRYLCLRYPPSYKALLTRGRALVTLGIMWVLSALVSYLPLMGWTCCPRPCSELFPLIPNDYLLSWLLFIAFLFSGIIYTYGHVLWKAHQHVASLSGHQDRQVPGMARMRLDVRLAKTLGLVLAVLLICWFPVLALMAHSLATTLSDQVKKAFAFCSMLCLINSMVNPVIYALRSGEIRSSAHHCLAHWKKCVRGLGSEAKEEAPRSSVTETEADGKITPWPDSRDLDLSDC

Structure (SMILES)	target	assay	test system	conditions	how to read	quantity	result
COC(=O)c1ccc2c(C=C3C(=O)C4CCN3CC4)cn(Cc3ccccc3)c2c1	CNR2	cAMP increase	CHO-hCB2			EC50	48 ± 3.9 nM
CCCCCn1cc(C(=O)c2cccc3ccccc23)c2cc(O)ccc21	CNR2	adenylyl cyclase activity, agonist	CHO cells expressing human CB2	10 µM, together with: forskolin		Emax	55.1 ± 2.7 % inhibition
CCCCCn1cc(C(=O)c2cccc3c2CC(C)(C)C3)c2ccccc21	CNR2 (Homo sapiens, UniProt P34972, V261L)	Gαi1 engagement, agonist, BRET			reference: reference agonist at wild-type CB2	Emax	24.7 ± 3%
CC1=C[C@H]2c3c(O)cc(CCc4ccccc4)cc3OC(C)(C)[C@H]2CC1	CNR2			10 µM		binding inhibition	≥ 90%
CCOC(=O)C(CC)(CC)NC(=O)c1ccc(C2CC2)c(Cc2ccc(F)cc2)n1	CNR2	[3H]CP55940 displacement	CHO cell membranes		reference: Ki CB1 over Ki CB2	selectivity ratio	21
CCCCCn1cc(C(=O)c2ccc3c(c2)CC(C)(C)C3)c2ccccc21	CNR2	Gαi1 engagement, agonist, BRET	HEK293T		reference: reference agonist	Emax	75.3 ± 5.2%
CCOC(=O)[C@](CC)(CCCSCCOCCOCCNc1ccc([N+](=O)[O-])c2nonc12)NC(=O)c1ccc(C2CC2)c(Cc2ccc(F)cc2)n1	CNR2	cAMP, agonist				Emax	72%
CCCCCn1cc(C(=O)c2cccc3ccccc23)c2ccccc21	CNR2	Gαi1 engagement, agonist, BRET	HEK293T		reference: reference agonist	Emax	73.5 ± 3.9%
CC(O)CCn1cc(C(=O)c2cccc3ccccc23)c2ccccc21 (stereo not drawn)	CNR2	adenylyl cyclase activity, agonist	CHO cells expressing human CB2	10 µM, together with: forskolin		Emax	54.4 ± 6.2 % inhibition
O=C1C(=Cc2cn(Cc3ccc(F)cc3)c3ccccc23)N2CCC1CC2	CNR2	cAMP level	CHO expressing human CB2	together with: forskolin	negative means cAMP increase	maximal inhibition	52 ± 4.5%
CCOC(=O)[C@](CC)(CCCSCCOCCOCCNC(=O)c1ccc(-c2c3ccc(=N)c(S(=O)(=O)O)c-3oc3c(S(=O)(=O)O)c(N)ccc23)c(C(=O)O)c1)NC(=O)c1ccc(C2CC2)c(Cc2ccc(F)cc2)n1	CNR2	cAMP, agonist				Emax	100%
CCCCn1cc(C(=O)c2cccc3ccccc23)c2cc(O)ccc21	CNR2	adenylyl cyclase activity, agonist	CHO cells expressing human CB2	10 µM, together with: forskolin		Emax	55.8 ± 4.9 % inhibition
